# Measurements pooled from the literature.
# Numbered parts are unrelated; each lists some results of a single study.

# Sample 1 — technique: protein-binding microarray; form: double-stranded DNA, one strand shown; matrix: in vitro; concentration: 250 nM; setting: 60-bp whole probe; together with: salmon DNA 0.4 mg/ml; relative to: random background probes; reading: higher = stronger binding; shared flanks, not repeated: GCCTAGCAC … GTCTTGATTCGCTTGACGCTGCTG
# Target: Interferon regulatory factor 7, full length, phosphomimetic (IRF7, Homo sapiens, UniProt Q92985, residues 1-503, S101K/S471D/S472D/S475D/S476D/S477D/S483D/S484D/S487D)
# Target sequence (chain): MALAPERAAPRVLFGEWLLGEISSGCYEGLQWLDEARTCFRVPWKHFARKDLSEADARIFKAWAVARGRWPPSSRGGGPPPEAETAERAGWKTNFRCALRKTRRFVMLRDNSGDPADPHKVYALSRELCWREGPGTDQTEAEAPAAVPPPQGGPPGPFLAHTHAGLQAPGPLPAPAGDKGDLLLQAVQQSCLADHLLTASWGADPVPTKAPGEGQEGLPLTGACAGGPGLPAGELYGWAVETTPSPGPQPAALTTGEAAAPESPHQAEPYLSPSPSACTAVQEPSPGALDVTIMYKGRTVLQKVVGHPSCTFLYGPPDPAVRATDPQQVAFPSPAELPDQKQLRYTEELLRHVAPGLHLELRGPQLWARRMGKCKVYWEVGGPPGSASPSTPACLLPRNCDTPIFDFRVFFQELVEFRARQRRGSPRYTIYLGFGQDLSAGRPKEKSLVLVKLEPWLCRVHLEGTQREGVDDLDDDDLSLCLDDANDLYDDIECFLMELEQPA
Oligonucleotide,log fluorescence [z-score]
TTAGGACTGCTTATCATTTAGTGCTAG,0.13
GACGATATCGGGTTTCGAGCCGTGCTA,1.31
TTAGATCTAAGTTTCGATTAGTGCTAG,8.79
GGGCATTTGGAAAATGTAAACGTGCTA,-0.412
GTGTTTCTCAGTTTATTTATGTGCTAG,2.79
TCAGGTTTCGACACTGGGTTAGTGCTA,3.75
TTAGAACTGGGTTTTCGATTAGTGCTA,1.89
TAGACCTAGAAAGAAACCACGTGCTAG,1.08
TCATTTTTCCGAGTGAGACTGTGCTAG,1.33
TCACCTTTTAAGTTCTCACTGTGCTAG,0.876
GACGTTTTCCTACTGCTGACGTGCTAG,1.62
GACGATTTCTGTATCGAGACGTGCTAG,0.561
TTAGATAACAGTATCGATTAGTGCTAG,0.993
TCAGTCTTCAGGTTCTCACTGTGCTAG,-0.12
GCTAGTTCAGTTCTCTAGAAGTGCTAG,-0.0746
TTGGATATCGGGTTTCGATTAGTGCTA,6.48

# Sample 2 — technique: RNA Bind-n-Seq; form: RNA; matrix: in vitro; concentration: 365 nM; relative to: no-protein control; reading: higher = stronger binding
# Target: RNA binding protein fox-1 homolog 2, RRM domain, GST-SBP tag (RBFOX2, Homo sapiens, UniProt O43251-10, residues 100-194)
# Setting: natural RNA segment, single round, ends assumed
# Shared flanks, not repeated: GGGAGUUCUACAGUCCGACGAUC … UGGAAUUCUCGGGUGCCAA
# Construct (chain): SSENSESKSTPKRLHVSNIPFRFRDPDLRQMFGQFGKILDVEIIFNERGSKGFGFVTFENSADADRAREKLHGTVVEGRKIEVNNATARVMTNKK
Oligonucleotide,RBNS enrichment (R)
CGCCAGCCCUUUGCACAGGCAGCUGGGAAUUCCACCUGAAACAGCUGGUCCCUAGGUUAGCGGGUUCCCAGCCCCCCUAAUCAGAGACUGAAGGACAAUUGACUUUUAUU,1.43
AGCAGGUCUGACCAGCCCUACACCCUGCCACAGAUCACAGCUUGCCGGGCAAAUGACCCUGCGAAGCCACGGUGCAGCGCCCCCUGCUGGCGAGCAGCGGGCAGACCUCC,0.531
CAUUGUUGAGAUCAGUGGGCAUAUACCAAGCUCCACCCCCAGUGUCAGCUUUGUGCAAUUUGCCUUUACCUCACCAAAAAUACCUACUUUAAUAUUUCCUCCUGUGUCCU,0.433
ACAUUAUACAGUAUCCUUUUCAGUCCUGCCAUAGAGAGGAACUAGAAUUCAGAUCUCAAUAUUAGGGAGAGUUCUCCUUUGAGCAACUCCUUUGCUUUCACACAGCAUAG,0.727
AAUCAUGCAAUUAAAGUUGAUUACUUAUAAAUAUGAACUUUGGAUCACUGUAUAGACUGUUAAAUUUGAUUUCUUAUUACCUAUUGUUAAAUAAACUGUGUGAGACAGAC,0.867
AGGUACCCAUGCUUGAUCUGUCUUCACACCAGACCUCCUCAUAUUAAAAGGAAAAAUAAGAAAAAAAAUGUAAGAAAUCACAUGGCUAUUUAGUUUCAUGCACAGUUGCA,1.11
UGGAAAUUGAGGUCCAUGGGGGAAAUCAAGGAUGCUCAGUUUAAGGUACACUGUUUCCAUGUUAUGUUUCUACACAUUGCUACCUCAGUGCUCCUGGAAACUUAGCUUUU,0.452
CACGACUUCCACCGUGUGUACAUCAGUGAACCUGAAACUCAGGGGACUUUGAACACCCGAGGGGCUGUGCCCCAGCUCCCCACUCCCCCAGGGGCAAUGGCCCCAACCUC,0.398
CCUUUGUGCUCUCACCCUCCACUCUGGUAAAGCUGCACCUCUGGGGGAAUGAGGGGCUGCAGGAAUCUCUGGAGAGCCUGGUGCUUCACGAUGCUGCUCUGGUGAUUCUU,0.341
UUUCCAAAGUAAGUUAUUGAAGCUGUGAUUGACAUUUUUCUCAUAAUGAAUCCUCUCAGGACAUUGUGUAGCCUAUGGUAAGUACAAAGGGAGAGGAAGACAUUUUGAAU,0.417
UAUCCUCUGUAUUUGUCAUUCCUCUCCUAGCCCUCCUGAGGGGUAUCCUCCUAAAGACCUCCAAAGUUUUUAUGGAAGGGUAAAUACUGGUACCUUCCCCCAGCUUUCCA,0.308
GGCUACAUUGUAAUCUGCUUUGUUAAUGAAAAUGAUAAAACAGAAUAUUGACAAGCUAGGACACCUGUGGUAUCUUUAAUUGUAUCUCCUUCAGAAGUUUGCUUCUUAUG,0.238

# Sample 3 — technique: aptamer microarray, sandwich; form: DNA with 2'F-ANA; matrix: in vitro; concentration: 200 nM; together with: Cy3 exosite-II aptamer, 400 nM; reading: higher = stronger binding; oligonucleotide: GGTTGGTGTGGTTGG
# Target: Prothrombin, mature alpha-thrombin (F2, Homo sapiens, UniProt P00734)
# Setting: whole 15-mer aptamer, many near background
Modification,mean fluorescence intensity
2'F-ANA at 3 4 7 8 9 10 12 13 14,206 a.u.
2'F-ANA at 5 8 10 13 14 15,45.8 a.u.
2'F-ANA at 1 2 3 4 6 7 10 13 14,47.5 a.u.
2'F-ANA at 2 7 8 9 11 13,417 a.u.
2'F-ANA at 1 2 3 5 7 9 12 13 14 15,53.1 a.u.
2'F-ANA at 3 4 6 8 10 11 13 14,142 a.u.
2'F-ANA at 4 5 6 7 8 9 11 12 13 14 15,63.7 a.u.
2'F-ANA at 1 2 7 10 11 12 13 14 15,69.9 a.u.
2'F-ANA at 3 4 10 12,366 a.u.
2'F-ANA at 1 7 8 12 13,461 a.u.
2'F-ANA at 1 3 5 6 9 10 12 13 14,47.4 a.u.
2'F-ANA at 1 2 4 6 8 14,52.1 a.u.
2'F-ANA at 1 2 4 5 9 12 15,110 a.u.
2'F-ANA at 4 5 7 9 11 13 14 15,46 a.u.
2'F-ANA at 1 3 7 8 9 11 12 15,561 a.u.
2'F-ANA at 4 5 6 8 11,71.4 a.u.
2'F-ANA at 3 7 8 10 14 15,451 a.u.
2'F-ANA at 1 3 6 7 9 11 13 14,76.7 a.u.
2'F-ANA at 2 4 5 7 11 12 13 14 15,59.7 a.u.
2'F-ANA at 1 2 3 4 6 7 8 9 10 13 15,57.3 a.u.
2'F-ANA at 2 3 7 8 10 12 13 15,387 a.u.
2'F-ANA at 1 3 4 5 6 7 8 10 11 14 15,58.4 a.u.
2'F-ANA at 1 2 4 6 9 12 13 14,53.8 a.u.

# Sample 4 — technique: protein binding microarray; form: double-stranded DNA, one strand shown; matrix: in vitro; concentration: not given; relative to: not given; reading: higher = stronger binding
# Target: Histone acetyltransferase KAT6A, winged helix 2, GST fusion (KAT6A, Homo sapiens, UniProt Q92794, residues 85-181)
# Setting: 8-mer, flanks averaged, mean of 2 arrays, mostly near background
# Construct (chain): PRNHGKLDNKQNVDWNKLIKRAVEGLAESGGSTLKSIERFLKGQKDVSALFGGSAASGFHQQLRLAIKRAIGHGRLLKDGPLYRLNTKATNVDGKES
Oligonucleotide,E-score
AATTTTGT,-0.013
CTGTCTTC,0.0683
CGCAGGTA,0.0852
ATGAGTCG,-0.13
CAGAGCTC,0.0464
CATTGCTC,-0.00629
ACCTCTCG,-0.126
CACTGTGG,0.0877
GTGAATGA,-0.0973
AACGGTTA,-0.24
AAGTTTAT,-0.111
CCCCTGCA,-0.171
ATGCGAAA,0.141
GTAGATAC,-0.0997
CGGCCTTA,0.176
AGTGCGTC,0.0304
GTCCTCAA,0.116
ACCTCTAA,0.00908
AAAATCGT,-0.0974

# Sample 5 — technique: universal PBM; form: double-stranded DNA, one strand shown; matrix: in vitro; concentration: 600 nM; reading: higher = stronger binding
# Target: Sal-like protein 4, full length isoform A (SALL4, Homo sapiens, UniProt Q9UJQ4, residues 1-1053)
# Sequence of UniProt Q9UJQ4 (whole entry, looked up): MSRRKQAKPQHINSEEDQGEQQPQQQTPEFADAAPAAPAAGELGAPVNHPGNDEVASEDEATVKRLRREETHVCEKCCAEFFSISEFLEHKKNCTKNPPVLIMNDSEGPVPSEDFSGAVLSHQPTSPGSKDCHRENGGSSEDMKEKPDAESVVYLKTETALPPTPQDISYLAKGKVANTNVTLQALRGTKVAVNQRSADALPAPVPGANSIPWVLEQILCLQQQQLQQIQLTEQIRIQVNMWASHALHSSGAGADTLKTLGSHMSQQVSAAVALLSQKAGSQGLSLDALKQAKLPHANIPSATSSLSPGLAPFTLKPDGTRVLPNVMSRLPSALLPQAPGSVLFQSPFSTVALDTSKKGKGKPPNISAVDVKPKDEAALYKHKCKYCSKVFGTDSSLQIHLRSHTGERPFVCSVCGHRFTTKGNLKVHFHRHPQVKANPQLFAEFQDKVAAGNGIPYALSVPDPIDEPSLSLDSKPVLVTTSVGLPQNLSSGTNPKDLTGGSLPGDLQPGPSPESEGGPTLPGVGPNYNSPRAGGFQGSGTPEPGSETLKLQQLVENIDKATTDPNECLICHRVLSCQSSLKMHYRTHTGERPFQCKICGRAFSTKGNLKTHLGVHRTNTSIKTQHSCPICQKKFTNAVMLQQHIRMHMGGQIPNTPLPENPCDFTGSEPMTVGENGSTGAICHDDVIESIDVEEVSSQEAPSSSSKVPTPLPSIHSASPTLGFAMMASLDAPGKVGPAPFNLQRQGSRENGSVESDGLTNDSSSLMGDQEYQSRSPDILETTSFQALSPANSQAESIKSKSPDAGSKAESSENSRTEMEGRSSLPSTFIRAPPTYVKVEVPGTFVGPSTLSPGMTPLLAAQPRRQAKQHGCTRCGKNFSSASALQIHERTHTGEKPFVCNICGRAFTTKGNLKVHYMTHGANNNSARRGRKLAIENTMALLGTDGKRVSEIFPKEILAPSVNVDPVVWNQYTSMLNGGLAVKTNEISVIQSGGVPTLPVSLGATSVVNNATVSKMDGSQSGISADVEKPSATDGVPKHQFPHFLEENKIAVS
# Setting: 8-mer, flanks averaged, mean of replicates
Oligonucleotide,E-score
ATGCAACA,0.0952
CGCCGGCC,-0.401
CAACCTTG,-0.0563
GTAGTGTA,0.00516
ACTTGGGG,-0.11
AGCTACCA,-0.121
AACCTTAA,0.155
GCGCGGTA,-0.221
AAGCAGAG,0.0729
ACATCCAT,0.149
AGCCTCCA,-0.18
CCCTAAAA,0.0617
GCGAGCAA,-0.196
ATCGTAAC,0.157
ACGCACAT,0.0496
GATGAACA,0.116
GTGTAGCA,-0.158
TAGTCGAA,0.0655

# Sample 6 — technique: RNAcompete; form: RNA; matrix: in vitro; concentration: 20 nM; setting: 7-mer, probes averaged, single round; relative to: mean of 7-mers; reading: higher = stronger binding
# Target: PABPC1L2, full length, GST fusion (mouse, UniProt A0ABA7IW68)
# Residues (chain): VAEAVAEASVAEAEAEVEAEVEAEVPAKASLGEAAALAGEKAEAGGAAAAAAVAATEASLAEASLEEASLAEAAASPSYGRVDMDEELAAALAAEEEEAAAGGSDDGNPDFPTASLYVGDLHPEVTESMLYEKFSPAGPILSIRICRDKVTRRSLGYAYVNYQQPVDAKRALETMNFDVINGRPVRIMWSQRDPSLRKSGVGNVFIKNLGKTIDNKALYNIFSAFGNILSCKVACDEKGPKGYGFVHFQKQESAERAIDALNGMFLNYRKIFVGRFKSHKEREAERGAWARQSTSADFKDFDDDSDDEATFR
Oligonucleotide,7-mer Z-score
UAAGGGG,0.463
CAUAACU,-0.122
CGAGUCC,-0.407
GAUGUGC,0.0841
CCUGCAU,-0.255
GUCAAUC,-0.24
CGCGUUU,-0.492
GGAGGUG,0.216
GACCACU,-0.266
UCAGUGU,-0.191
GUUCCCU,-0.306
GUGAACG,-0.222
CGUGCAA,-0.122
UGUAUCA,-0.195

# For quick reference, copied from above (sample 4):
Oligonucleotide,E-score
AACGGTTA,-0.24
ATGAGTCG,-0.13
CGGCCTTA,0.176
ACCTCTAA,0.00908
ACCTCTCG,-0.126
AATTTTGT,-0.013
CACTGTGG,0.0877
GTCCTCAA,0.116
CCCCTGCA,-0.171
AAGTTTAT,-0.111
CAGAGCTC,0.0464
AAAATCGT,-0.0974
ATGCGAAA,0.141
